Results gathered from unrelated publications.
Parts stem from different laboratories: compare values within a part only.

Set 1
Target: Histone acetyltransferase KAT6A, winged helix 2, GST fusion (KAT6A, Homo sapiens, UniProt Q92794, residues 85-181)
Technique: protein binding microarray
Molecule type: double-stranded DNA, one strand shown
Matrix: in vitro
Concentration: not given
Notes: 8-mer, flanks averaged, mean of 2 arrays, mostly near background
Relative to: not given
Direction: higher = stronger binding
Endpoint: E-score
Residues (chain): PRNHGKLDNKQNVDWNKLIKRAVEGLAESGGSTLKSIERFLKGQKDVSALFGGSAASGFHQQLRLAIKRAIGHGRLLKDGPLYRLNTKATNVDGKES
ACGGTGGG: -0.0198
AAGGATGC: -0.103
AGCTAGGA: -0.0909
ATTAGCGG: -0.0185
AAAAATAT: 0.0455
ATAATCAA: 0.0388
AAATAACC: -0.049

Set 2
Target: RING finger protein unkempt homolog, zinc fingers 1-6, GST-SBP tag (UNK, Homo sapiens, UniProt Q9C0B0, residues 30-357)
UniProt Q9C0B0, sequence (30-357, looked up): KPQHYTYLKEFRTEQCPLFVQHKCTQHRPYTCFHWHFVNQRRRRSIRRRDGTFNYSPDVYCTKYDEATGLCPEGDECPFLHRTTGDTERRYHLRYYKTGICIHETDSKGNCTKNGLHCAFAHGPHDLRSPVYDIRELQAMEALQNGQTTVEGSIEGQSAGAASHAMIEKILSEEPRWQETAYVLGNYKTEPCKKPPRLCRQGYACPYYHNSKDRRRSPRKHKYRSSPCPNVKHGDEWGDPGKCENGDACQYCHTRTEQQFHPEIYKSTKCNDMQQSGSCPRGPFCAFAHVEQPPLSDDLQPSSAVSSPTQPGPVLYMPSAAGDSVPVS
Technique: RNA Bind-n-Seq
Molecule type: RNA
Matrix: in vitro
Concentration: not given
Notes: RNA with constant flanks, ends assumed
Relative to: input RNA pool
Direction: higher = stronger binding
Endpoint: bound/input enrichment
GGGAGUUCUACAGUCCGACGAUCACCACAAGUGCCACCACCUACCCCACCCCCGGUGGCCGCUGUUCCUCCAACUCCCCAGCCUUCCGCUCCUACACCUUCAGCACCCUGCCCAGCUACUCCUGCUGGACCAAAGGGAAGGGUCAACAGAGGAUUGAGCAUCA: 0.246 ratio
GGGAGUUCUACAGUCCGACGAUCUUGUAGAUGGCAUUAUUUGGCUCAGAUUCAUCGUGCCUUGGGCAGAAUGAGGAAAUGUGUAUCCGACGCCUAACUACUGAGGUUCAUACUGAUUUGGUUGUCUUUGAUGGCUGUGACAUGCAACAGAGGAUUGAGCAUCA: 0.228 ratio
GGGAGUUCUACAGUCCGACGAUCGCAAAAGUUUAUAUCAUAUUGGAUCAACCUGUGACUGCUUUAAAUCUAUUUAAACAAGGCUCCGAUAAGUUUCCAGGAGAGGUGACCCUGCUUUGUGGAAUUGCCAGGAUCUAUGAGGAACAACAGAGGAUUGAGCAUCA: 0.317 ratio
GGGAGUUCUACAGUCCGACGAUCAGGAGGAGGUUUGCAUCACGGAUCAUAGAUAGCCUGUUUAAUACAGUGACCGAUAAGAAGACCGCUAUCUUGGGGUUUGCAUUCAAAAAGGAUACUGGUGAUACCAGAGAAUCCUCCAGUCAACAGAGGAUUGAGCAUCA: 0.239 ratio
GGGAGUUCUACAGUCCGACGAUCAGUUCCAGAACCAGAAUCAGAAAUGAAGAUGAGACUACCAAGACGAGCCAAAACCGCAGCACCCGAAAAAAGUAAACUUAACCUUGCCCAAUUUCUCAAUGAAGAUCUAAGUUAGGAAAGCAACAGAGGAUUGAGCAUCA: 0.284 ratio
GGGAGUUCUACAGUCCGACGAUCCCUUCUAAUUUUGGAGAUUUUUCUCAGAAUGUUUCUACACCUACUGAACAGCAGCAGCCAUCCGCUCAAAAUCCUUCAGGGAAAACAGAGUAUAUGGCUUUUCCAAAACCCUUUGAAAGCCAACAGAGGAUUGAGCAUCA: 0.138 ratio
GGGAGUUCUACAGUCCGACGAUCUAGUGAACAAUGACCUCAUUUUAUUUUCUAUGUUAGUUAUUUAUUUCAAAAUUUACAUUUCCGUUUAUUUUCGUCUGUAAAGCGUAUGUUUCGCACUGCUCUUUUACUCUGAGGGUUUAACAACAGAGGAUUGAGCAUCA: 106 ratio
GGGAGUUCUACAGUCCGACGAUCAAGAUUGGGCUUAUUCAGUUUUGCUUAUCUGCUCCUAAAACAGAUAUGGAUAAUCAAACCGCCGUAUCUGACUAUGCCCAGAUGGAUCGAGUGCUUCGAGAGGAGAGAGCCUAUAUUUUACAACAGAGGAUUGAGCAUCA: 0.206 ratio

Set 3
Target: RNA binding protein fox-1 homolog 2, RRM domain, GST-SBP tag (RBFOX2, Homo sapiens, UniProt O43251-10, residues 100-194)
Technique: RNA Bind-n-Seq
Molecule type: RNA
Matrix: in vitro
Concentration: 365 nM
Notes: natural RNA segment, single round, ends assumed
Relative to: no-protein control
Direction: higher = stronger binding
Endpoint: RBNS enrichment (R)
Construct (chain): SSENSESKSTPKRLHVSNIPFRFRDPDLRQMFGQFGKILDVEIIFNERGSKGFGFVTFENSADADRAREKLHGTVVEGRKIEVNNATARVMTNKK
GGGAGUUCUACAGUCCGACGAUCUUCUGCUCUGGGCUGUGAAGGGGUGGAGCAGGCAGUGGCCAGCUUUGCCCUUCCUGCUGUCUCUGUUUCUAGCUCCAUGGUUGGCCUGGUGGGGGUGGAGUUCCCUCCCAUGGAAUUCUCGGGUGCCAA: 0.574
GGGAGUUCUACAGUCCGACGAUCUUCAUUCAAUCCUGAGAGGCCAAUUAGUCUUUAUAAGGCCCAGAUCCUUGUAGUCCAGGUGAUCAGUGGCCAACAACUCCCCAAAGUGGAUAAAACCAAAGAGACAACCGUGGAAUUCUCGGGUGCCAA: 0.307
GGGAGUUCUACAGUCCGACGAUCCCCACAAAGACCUCCUGGGUGGGAAAGACUCAAAGGGGUGCUUGGGCCACUCAGGACCCCUCUGGCUGUGUCGGACUGGGGAGGGAUAUGAUGGAGAGCCAGCCAGUGGGUGGAAUUCUCGGGUGCCAA: 0.628
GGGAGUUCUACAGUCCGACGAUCCAGUAGGGACUCUGUGUGGGGGCUCCCACACCACAUUUCCCUUCUGCACUGCCCUAGCAGAGGUUCUCUCCCCUGCCGCUGAGAGGGCCUCUCCCCUGCAGCAAACGUUUUGGAAUUCUCGGGUGCCAA: 0.322
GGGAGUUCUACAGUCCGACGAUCUGGAGAUCCCAUCCUGCUACUAAGAAGUUUUCUGUACAUCACUUCCAAACAUUGGAAACUUUCAGAUCAUAAGGCAGAAUUUAGUAAUUUUGUGCUUCUGUUAAUGUCUAUGGAAUUCUCGGGUGCCAA: 0.371
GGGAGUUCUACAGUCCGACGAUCUCACUAGAGGGAAGACCUGGGCAUCCUGCUGGCUCCUCUCUCCGUGGGGCCUGGAGUCUGGUGCUGUUCCCCAGCCAGCCUGGCUGCAGACCUCUCUGGCUGAUACCGCUUGGAAUUCUCGGGUGCCAA: 0.208

Mixed results
PhoQ, residues 284 288 289 292 302 303 SLSLLA
fold induction (PhoP, residues 12 14 15 18 19 YHFSH (Escherichia coli, UniProt P23836); Sort-seq, measured: YFP reporter; E. coli; PhoQ-PhoP variant library, with: 10 µM Mg2+; relative to: high Mg2+ state, higher = stronger signaling): 1.62

A few entries again (mixed results):
PhoQ, residues 284 288 289 292 302 303 SLSLLA
fold induction (PhoP, residues 12 14 15 18 19 YHFSH (Escherichia coli, UniProt P23836); Sort-seq, measured: YFP reporter; E. coli; PhoQ-PhoP variant library, with: 10 µM Mg2+; relative to: high Mg2+ state, higher = stronger signaling): 1.62
